Experimental data pooled from the literature.
“And” joins repeats or separate records; there may be more than shown.
Target: Aurora kinase B (AURKB, Homo sapiens, UniProt Q96GD4)

Cc1ccc(-c2c(/C=C(\C#N)C(=O)NC(C)C)n(CCCO)c3ncnc(N)c23)cc1 — remaining binding (cell-free assay, competition with immobilised ligand; 1 µM): 75%
COc1c(Cl)cccc1Nc1c(-c2ccncc2C#C[C@@]2(C)CCCN2C(=O)/C=C/CN(C)C)[nH]c2c1C(=O)NCC2 — remaining binding (cell-free assay, competition with immobilised ligand; 3 µM): 84%
Cc1cnc2nc1Nc1cccc(c1)COC/C=C/COCc1cc(ccc1OCCN1CCOCC1)N2 — remaining binding (binding; 0.1 µM): 100%
CN1C[C@@H](c2c[nH]c3cc(Br)ccc23)NC[C@@H]1c1c[nH]c2cc(Br)ccc12 — remaining activity (enzyme activity, inhibitor; 10 µM): 78%
C=CC(=O)N1CCc2ccc(-n3c(=O)ccc4cnc5ccc(-c6cnn(C)c6)cc5c43)cc21 — remaining binding (KINOMEscan; 1 µM; reference: DMSO control): 97%
COc1ccc(NC(=O)Nc2ccc3c(c2)C(=O)N(C(C)CO)CC(C)C(CN(C)Cc2ccc4c(c2)OCO4)O3)cc1 (stereo not shown) — remaining binding (binding, competition with immobilised ligand; 10 µM): 0.5%
COc1cc(Nc2nc(C)cc(-c3cnn4nc(OC)ccc34)n2)cc(C(F)(F)F)c1 — remaining activity (inhibitor; 1 µM; reference: control): 85%
CC1CCN(c2ccc(-c3n[nH]c(=O)c4cccnc34)cc2)CC1 — remaining binding (cell-free assay, competition with immobilised ligand; 10 µM): 13%
C=CC(=O)Nc1cccc(-c2cnc3[nH]cc(C(=O)NC(C)(C)C)c3n2)c1 — inhibition (enzyme activity, inhibitor; 0.1 µM): 18%
Nc1ncc2c(n1)-c1c([nH]c3ccc(C4=CCOCC4)cc13)CCC2 — remaining binding (binding, competition with immobilised ligand; 1 µM): 81%
CNC1C[S+]2CC[S+]3CC[S+](C1)[Ru-4]321([N]=C=S)[n]2c3ccc(OC)cc3c3c4c(c5cc(F)c[n+]1c5c32)C(=O)NC4=O (stereo not shown) — remaining binding (KinomeScan; 0.1 µM; reference: untreated): 87%
NC(=O)C[C@H]1CCc2sc3ncnc(O[C@H]4CC[C@H](N5CCOCC5)CC4)c3c21 — inhibition (enzyme activity, inhibitor; 10 µM): 3%
CCn1cc(C(=O)O)c(=O)c2c(N)c(F)c(NC3CCCCC3)cc21 — inhibition (kinase activity; 0.1 µM, together with: ATP at Km): 4.1%
c1ccc2c(Nc3cc(C4CCC4)[nH]n3)nc(Nc3ccc4nc[nH]c4c3)nc2c1 — remaining activity (enzyme activity, inhibitor; 0.25 µM): 4%
COCC12C(=O)NC3C4(C(OC)CC1O)C1CC5(O)C(OC)C(O)C(OC(C)=O)(C1C5OC(=O)c1ccccc1)C3(O)C(OC)C24 (stereo not shown) — remaining activity (kinase activity, inhibitor, ProQinase kinase profiling; 25 µM; reference: control): 106% and 101%
C=C1CCCCCCCCCC(CO)C1=O (stereo not shown) — remaining signal (cell-free assay; 10 µM): 99%
CN1CCN(Cc2ccc(-c3ccc(CO[C@H]4CCC[C@@H]4NC(=O)c4cc(-c5cnn(C)c5)cnc4N)cc3)cc2)CC1 — inhibition (enzyme activity, inhibitor; 0.1 µM): -13%
CN1CCN(Cc2ccc(NC(=O)c3cccc(C#Cc4cnc(N)c5ncccc45)c3)cc2C(F)(F)F)CC1 — remaining binding (cell-free assay, competition with immobilised ligand; 0.5 µM): 4.5%
COc1ccc(O)cc1-c1c[nH]c2ncc(-c3cncc(C(=O)N(C)C)c3)cc12 — inhibition (binding, competition with immobilised ligand; 0.2 µM): -0.76%
CN1CC[C@@H](COc2cnc(C#N)cc2-c2ccn3nc(NC(=O)C4CC4)cc3c2)C1 — inhibition (enzyme activity, inhibitor; 1 µM): 14%
Cc1cccc(O[C@H]2CCC[C@@H](C(C)CNCc3ccncc3)C2)c1 (relative stereo) — inhibition (enzyme activity, inhibitor; 1 µM): -3%
Nc1ncc(-c2cc(-c3cnn(CC(F)(F)F)c3)ncc2F)nc1C(=O)NC1CNCC(F)C1 (stereo not shown) — remaining activity (enzyme activity; 1 µM; reference: DMSO control): 86.2%
